Measured values gathered from unrelated publications.
Values joined by “and” are separate records of one study, mostly repeats; a detail may differ.
ACHE: Acetylcholinesterase (ACHE, Homo sapiens, UniProt P22303)
UniProt P22303, sequence (whole entry, looked up): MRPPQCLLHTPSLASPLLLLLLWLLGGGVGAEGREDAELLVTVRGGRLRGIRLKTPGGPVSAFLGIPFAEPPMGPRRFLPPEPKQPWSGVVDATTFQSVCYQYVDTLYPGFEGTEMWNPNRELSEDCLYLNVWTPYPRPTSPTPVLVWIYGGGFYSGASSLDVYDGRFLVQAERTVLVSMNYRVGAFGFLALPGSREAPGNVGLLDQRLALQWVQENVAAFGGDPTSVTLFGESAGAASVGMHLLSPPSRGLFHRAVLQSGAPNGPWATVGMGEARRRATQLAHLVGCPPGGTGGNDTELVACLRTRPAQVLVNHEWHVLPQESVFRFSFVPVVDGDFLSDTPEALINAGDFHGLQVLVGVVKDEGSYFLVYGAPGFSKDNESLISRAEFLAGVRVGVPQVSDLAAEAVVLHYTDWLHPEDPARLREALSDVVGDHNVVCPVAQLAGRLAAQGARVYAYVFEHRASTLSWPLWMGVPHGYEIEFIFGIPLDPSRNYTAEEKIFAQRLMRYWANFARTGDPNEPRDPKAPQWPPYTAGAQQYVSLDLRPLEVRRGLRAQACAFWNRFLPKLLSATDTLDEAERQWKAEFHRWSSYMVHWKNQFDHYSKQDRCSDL
UniProt Q01959, sequence (whole entry, unmodified, looked up): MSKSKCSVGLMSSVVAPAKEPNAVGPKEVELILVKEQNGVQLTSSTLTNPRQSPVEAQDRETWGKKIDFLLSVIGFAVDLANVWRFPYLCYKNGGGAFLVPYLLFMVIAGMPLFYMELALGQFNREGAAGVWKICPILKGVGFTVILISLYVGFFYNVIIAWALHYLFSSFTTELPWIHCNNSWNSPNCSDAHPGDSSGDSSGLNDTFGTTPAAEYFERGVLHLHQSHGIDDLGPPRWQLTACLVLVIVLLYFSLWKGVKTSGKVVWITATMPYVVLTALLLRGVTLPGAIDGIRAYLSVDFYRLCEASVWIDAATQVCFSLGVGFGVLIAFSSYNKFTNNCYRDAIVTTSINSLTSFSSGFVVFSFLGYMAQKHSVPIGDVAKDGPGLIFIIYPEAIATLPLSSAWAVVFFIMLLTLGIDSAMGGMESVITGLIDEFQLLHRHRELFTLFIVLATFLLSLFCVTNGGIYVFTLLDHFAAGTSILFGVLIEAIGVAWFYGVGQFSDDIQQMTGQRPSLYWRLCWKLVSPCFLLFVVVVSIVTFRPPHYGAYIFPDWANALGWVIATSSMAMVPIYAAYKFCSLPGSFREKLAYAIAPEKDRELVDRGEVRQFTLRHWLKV
UniProt P52333, sequence (whole entry, looked up): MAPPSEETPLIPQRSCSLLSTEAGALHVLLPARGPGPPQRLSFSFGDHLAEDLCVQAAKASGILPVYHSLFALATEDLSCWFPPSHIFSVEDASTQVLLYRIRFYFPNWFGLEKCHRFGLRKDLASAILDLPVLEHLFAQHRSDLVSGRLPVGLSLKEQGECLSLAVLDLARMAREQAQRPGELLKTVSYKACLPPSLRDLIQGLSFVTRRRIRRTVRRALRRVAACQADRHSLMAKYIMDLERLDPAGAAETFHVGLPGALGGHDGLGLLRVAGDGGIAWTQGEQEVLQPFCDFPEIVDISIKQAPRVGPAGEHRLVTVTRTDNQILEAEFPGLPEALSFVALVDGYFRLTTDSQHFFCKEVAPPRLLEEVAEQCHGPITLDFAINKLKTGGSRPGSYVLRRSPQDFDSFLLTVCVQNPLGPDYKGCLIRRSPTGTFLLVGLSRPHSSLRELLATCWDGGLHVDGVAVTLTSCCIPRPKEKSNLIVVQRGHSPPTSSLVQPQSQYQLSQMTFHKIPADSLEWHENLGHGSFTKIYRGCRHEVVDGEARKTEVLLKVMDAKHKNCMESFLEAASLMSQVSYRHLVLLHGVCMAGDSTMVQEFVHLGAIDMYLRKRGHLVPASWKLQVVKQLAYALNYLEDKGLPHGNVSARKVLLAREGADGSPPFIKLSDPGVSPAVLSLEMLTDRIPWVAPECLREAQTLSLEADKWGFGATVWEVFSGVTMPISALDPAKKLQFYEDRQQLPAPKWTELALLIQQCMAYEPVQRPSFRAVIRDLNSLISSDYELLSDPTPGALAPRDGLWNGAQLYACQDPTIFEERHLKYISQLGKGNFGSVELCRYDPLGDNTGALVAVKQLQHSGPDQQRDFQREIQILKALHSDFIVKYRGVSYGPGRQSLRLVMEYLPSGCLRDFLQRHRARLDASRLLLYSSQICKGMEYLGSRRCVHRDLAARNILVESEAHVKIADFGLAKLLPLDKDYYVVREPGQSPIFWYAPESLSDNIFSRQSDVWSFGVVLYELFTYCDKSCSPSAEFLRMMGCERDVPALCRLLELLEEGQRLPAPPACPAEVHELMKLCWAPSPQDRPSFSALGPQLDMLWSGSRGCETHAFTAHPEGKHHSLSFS
UniProt P14868, sequence (whole entry, looked up): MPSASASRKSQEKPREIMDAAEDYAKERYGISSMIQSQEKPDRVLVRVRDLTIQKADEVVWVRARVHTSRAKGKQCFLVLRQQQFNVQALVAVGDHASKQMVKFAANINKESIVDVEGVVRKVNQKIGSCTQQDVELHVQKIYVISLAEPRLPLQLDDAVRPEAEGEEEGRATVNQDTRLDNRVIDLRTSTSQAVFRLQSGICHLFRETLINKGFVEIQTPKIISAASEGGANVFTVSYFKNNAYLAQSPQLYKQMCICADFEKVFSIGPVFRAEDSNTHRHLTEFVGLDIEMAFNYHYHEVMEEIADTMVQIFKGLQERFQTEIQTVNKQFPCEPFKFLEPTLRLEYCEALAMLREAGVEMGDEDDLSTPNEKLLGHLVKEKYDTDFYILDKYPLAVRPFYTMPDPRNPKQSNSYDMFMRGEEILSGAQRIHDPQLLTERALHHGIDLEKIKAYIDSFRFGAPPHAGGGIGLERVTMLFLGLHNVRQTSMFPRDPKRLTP
UniProt P28223, sequence (whole entry, looked up): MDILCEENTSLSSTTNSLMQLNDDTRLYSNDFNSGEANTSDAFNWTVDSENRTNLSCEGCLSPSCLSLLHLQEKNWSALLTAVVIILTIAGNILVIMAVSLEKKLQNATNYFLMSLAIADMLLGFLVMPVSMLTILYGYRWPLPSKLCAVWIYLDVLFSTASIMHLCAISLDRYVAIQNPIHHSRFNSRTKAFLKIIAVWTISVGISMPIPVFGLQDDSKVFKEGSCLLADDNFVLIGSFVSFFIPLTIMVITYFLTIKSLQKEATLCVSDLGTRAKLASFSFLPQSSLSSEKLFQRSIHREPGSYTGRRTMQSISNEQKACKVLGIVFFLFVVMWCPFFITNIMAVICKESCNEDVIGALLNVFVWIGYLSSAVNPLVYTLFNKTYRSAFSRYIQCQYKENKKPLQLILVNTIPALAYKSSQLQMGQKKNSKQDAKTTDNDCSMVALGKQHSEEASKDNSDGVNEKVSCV
UniProt P08581, sequence (whole entry, looked up): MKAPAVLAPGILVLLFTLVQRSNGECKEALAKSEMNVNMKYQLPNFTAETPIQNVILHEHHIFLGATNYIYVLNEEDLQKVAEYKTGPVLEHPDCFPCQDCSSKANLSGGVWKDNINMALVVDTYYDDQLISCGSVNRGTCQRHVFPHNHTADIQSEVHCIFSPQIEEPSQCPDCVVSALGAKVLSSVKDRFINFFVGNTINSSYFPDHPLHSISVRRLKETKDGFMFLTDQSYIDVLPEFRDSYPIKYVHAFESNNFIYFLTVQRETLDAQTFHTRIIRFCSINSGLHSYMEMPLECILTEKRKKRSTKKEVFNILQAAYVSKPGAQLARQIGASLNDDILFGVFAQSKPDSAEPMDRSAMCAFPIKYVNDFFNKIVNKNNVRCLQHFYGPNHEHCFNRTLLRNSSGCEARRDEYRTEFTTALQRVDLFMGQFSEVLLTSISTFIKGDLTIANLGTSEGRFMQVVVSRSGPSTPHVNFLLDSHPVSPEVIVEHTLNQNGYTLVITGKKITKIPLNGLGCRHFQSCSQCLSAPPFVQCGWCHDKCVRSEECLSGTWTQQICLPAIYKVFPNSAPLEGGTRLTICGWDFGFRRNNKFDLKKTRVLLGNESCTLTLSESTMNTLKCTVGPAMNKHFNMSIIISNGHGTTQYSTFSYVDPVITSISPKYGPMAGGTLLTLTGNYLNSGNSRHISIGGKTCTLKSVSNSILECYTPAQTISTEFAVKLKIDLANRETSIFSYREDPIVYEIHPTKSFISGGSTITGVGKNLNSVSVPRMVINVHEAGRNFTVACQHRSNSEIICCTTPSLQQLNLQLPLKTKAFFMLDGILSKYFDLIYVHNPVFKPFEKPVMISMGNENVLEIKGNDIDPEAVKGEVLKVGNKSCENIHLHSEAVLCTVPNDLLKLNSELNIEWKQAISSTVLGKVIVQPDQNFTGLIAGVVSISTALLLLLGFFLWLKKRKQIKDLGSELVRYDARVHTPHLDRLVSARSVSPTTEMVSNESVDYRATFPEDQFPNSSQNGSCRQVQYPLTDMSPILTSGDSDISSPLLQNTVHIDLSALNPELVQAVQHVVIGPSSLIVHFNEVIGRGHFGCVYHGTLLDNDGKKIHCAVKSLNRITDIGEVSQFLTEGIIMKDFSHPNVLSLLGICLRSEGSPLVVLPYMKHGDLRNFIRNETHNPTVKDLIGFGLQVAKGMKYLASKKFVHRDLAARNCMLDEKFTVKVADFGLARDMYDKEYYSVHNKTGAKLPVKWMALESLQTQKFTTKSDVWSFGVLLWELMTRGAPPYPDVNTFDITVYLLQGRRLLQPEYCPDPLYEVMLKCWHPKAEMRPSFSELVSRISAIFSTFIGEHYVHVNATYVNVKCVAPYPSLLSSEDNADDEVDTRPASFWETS
UniProt P32245, sequence (whole entry, looked up): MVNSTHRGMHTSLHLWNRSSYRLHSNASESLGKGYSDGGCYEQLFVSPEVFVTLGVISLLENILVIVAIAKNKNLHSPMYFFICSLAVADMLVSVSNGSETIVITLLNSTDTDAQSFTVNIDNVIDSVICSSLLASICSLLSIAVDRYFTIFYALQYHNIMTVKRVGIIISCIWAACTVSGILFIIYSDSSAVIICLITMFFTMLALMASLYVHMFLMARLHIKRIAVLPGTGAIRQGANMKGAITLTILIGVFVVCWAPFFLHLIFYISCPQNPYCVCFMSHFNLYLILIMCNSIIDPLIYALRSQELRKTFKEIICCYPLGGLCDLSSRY

For `CN[C@@]1(c2ccccc2Cl)CCCCC1=O`, the inhibition was 34% (glycine transporter; radioligand binding, radioligand displacement; 30 µM).
Under IC50, `O=C(O)CCC(=O)O.c1ccc(C2(c3ccccc3)CC2C2=NCCN2)cc1` (stereo not shown) is recorded as “inactive” (ACHE; enzyme activity, inhibitor).
`CC[C@H](C)[C@H](NC(=O)CNC(=O)[C@@H](N)CCCCN)C(=O)N[C@@H](CC(C)C)C(=O)N[C@@H](CCCCN)C(=O)N[C@@H](CCCNC(=N)N)C(=O)N[C@@H](CCC(=O)O)C(=O)N[C@@H](CCCCN)C(=O)N[C@@H](CCCNC(=N)N)C(=O)N[C@@H](CC(C)C)C(=O)N[C@@H](CCCNC(=N)N)C(=O)N[C@@H](CCCNC(=N)N)C(=O)N[C@@H](CCCCN)C(=O)N[C@@H](CC(N)=O)C(=O)N[C@H](C(=O)N[C@@H](Cc1c[nH]cn1)C(=O)N[C@@H](Cc1c[nH]c2ccccc12)C(=O)N1CCC[C@H]1C(=O)N[C@@H](CCC(=O)O)C(=O)N[C@@H](CCC(=O)O)C(=O)NCC(=O)N[C@@H](CCCCN)C(=O)N[C@@H](CC(C)C)C(=O)N[C@@H](CCCNC(=N)N)C(=O)N[C@@H](CCC(=O)O)C(=O)N[C@@H](Cc1ccc(O)cc1)C(=O)N[C@@H](Cc1ccccc1)C(=O)N[C@@H](Cc1ccc(O)cc1)C(=O)N[C@@H](Cc1ccccc1)C(=O)N[C@@H](CCC(=O)O)C(=O)N[C@@H](CC(C)C)C(=O)N[C@@H](CC(=O)O)C(=O)N[C@@H](CCC(=O)O)C(=O)N[C@@H](C)C(=O)N[C@@H](CCC(=O)O)C(=O)N[C@@H](CCCNC(=N)N)C(=O)N[C@H](C(=O)N[C@@H](CC(N)=O)C(=O)N[C@H](C(=O)O)C(C)C)C(C)C)C(C)C` — result for “log2 fold change”: 0.45 (HeLa and HEK-293T cells; phosphatase bead binding, competitive inhibitor, PIB pulldown iBAQ LC-MS/MS, measured: FECH; concentration not given; baseline: untreated control).
For `CCOc1ccccc1C(=O)Nc1ccc(Cl)c(C(F)(F)F)c1`, “SPR binding response” read 0.125 RU (KAT5 (Homo sapiens, UniProt Q92993); SPR; 0.21 µM; higher = more binding).
With `[2H]c1c([2H])c([C@]2([2H])CCCN2C(=O)C(C)(C)Oc2ccc3cn[nH]c3c2)c([2H])c([2H])c1C([2H])([2H])[2H]` the remaining binding was 94% (MET (Homo sapiens, UniProt P08581); KINOMEscan; 1 µM; baseline: DMSO control).
`CN[C@@H](C)[C@H]1[C@H](O)C[C@@]2(C)[C@@H]3CC[C@H]4C(C)(C)[C@@H](NC)CC[C@@]45C[C@@]35CC[C@]12C` — result for IC50: “inactive” (ACHE; enzyme activity, inhibitor).
For `COc1ccc(N2C(=O)N(c3c(C)cccc3Cl)Cc3cnc(Nc4ccc(C5CCN(C)CC5)cc4OC)nc32)nc1`, the inhibition was 3.64% (JAK3 (Homo sapiens, UniProt P52333); kinase activity; 0.5 µM).
For `COc1cc(CCNC(C)c2ccccc2O)c(OC)cc1C#N.Cl` (stereo not shown), the selectivity ratio was 149 fold (HTR2A (Homo sapiens, UniProt P28223); binding, radioligand displacement; with: [3H]-ketanserin, [3H]-mesulergine (5-HT2C); baseline: 5-HT2A over 5-HT2C).
`Cc1c(NC(=O)c2cc3c(s2)CCCC3)cccc1-c1cn(C)c(=O)c(Nc2ccc(C3C(=O)N(C)CCN3C)cc2)n1` (racemic) — result for IC50: “inactive” (ACHE; enzyme activity, inhibitor).
For `Oc1ccc2c3c1O[C@H]1[C@@H](O)CC[C@@]4(O)[C@@H](C2)N(CC2CCC2)CC[C@]314`, “log2 fold change” read -0.089 (Probable G-protein coupled receptor 45 (GPR45, Homo sapiens, UniProt Q9Y5Y3); β-arrestin recruitment, TANGO luminescence, measured: GPR45; concentration not given; baseline: basal luminescence).
For `CN1CCN(c2cc(-c3ccncc3)c(-c3ccc4ccccc4c3)nn2)CC1`, the inhibition was 11.1% (MC4R (Homo sapiens, UniProt P32245); 10 µM).
Under IC50, `COc1ccc2c(c1)CN(C(=O)CCN1CCC(Cc3ccccc3)CC1)CCS2.COc1ccc2c(c1)CN(C(=O)CCN1CCC(Cc3ccccc3)CC1)CCS2.O=C(O)/C=C/C(=O)O` is recorded as “inactive” (ACHE; enzyme activity, inhibitor).
`C[C@H]1CN(c2n[nH]c3nc(N[C@H]4CC[C@H](NS(=O)(=O)CCC(F)(F)F)CC4)ncc23)CCO1` has a remaining binding of 1.06 (DARS1 (Homo sapiens, UniProt P14868); Kinobeads competition, measured: DARS; 0.032 µM, unit not given; baseline: vehicle).
For `CCCN(CCC)CCc1c[nH]c2ccccc12.Cl`, IC50 read “inactive” (ACHE; enzyme activity, inhibitor).
The inhibition of `CN(C)CC#CCC(O)(c1ccccc1)C1CCCC1.Cl` (stereo not shown) is reported as 2.3% (Trypanosoma cruzi; reporter translation, Renilla luciferase mRNA translation; cell-free extract; 40 µM; baseline: DMSO).
`O=C(c1ccc(Cl)cc1)N1CCN2C(=O)N(OC(=O)N3CCOc4ccccc43)C(=O)C2C1` (stereo not shown) — result for “mean protein ratio”: 1.03 (Phospholipase A1 member A (PLA1A, Homo sapiens, UniProt Q53H76); MS-based ABPP; SW-620 conditioned medium; 10 µM, 1 h, 37 °C; baseline: compound over DMSO, lower = more inhibition).
Under mRNA level, `O=S(=O)([O-])C(F)(F)C(F)(F)C(F)(F)C(F)(F)C(F)(F)C(F)(F)C(F)(F)C(F)(F)F.[K+]` is recorded as “increased” (RT-qPCR, measured: Cd36; mouse, ethanol-fed, liver; dose not given; baseline: efavirenz).
`C[N+](C)(CCOc1ccccc1)Cc1cccs1.[I-]`: IC50 “inactive” (ACHE; enzyme activity, inhibitor).
`c1ccc2cc([C@]34CNC[C@H]3C4)ccc2c1` gave a dopamine uptake of 6.53% and 3.03% and 4.6% (SLC6A3 (Homo sapiens, UniProt Q01959, V152A); inhibitor, [3H]dopamine uptake; 10 µM, V152A mutant; baseline: no inhibitor).

Excerpt of the above:
For `COc1cc(CCNC(C)c2ccccc2O)c(OC)cc1C#N.Cl` (stereo not shown), the selectivity ratio was 149 fold (HTR2A (Homo sapiens, UniProt P28223); binding, radioligand displacement; with: [3H]-ketanserin, [3H]-mesulergine (5-HT2C); baseline: 5-HT2A over 5-HT2C).
